Assay results of several laboratories.
Every numbered part comes from another study and shows a few of its results, in no order. Positions count from the first letter of the parent shown.

Sample 1
Target: CCNB1, cyclin fold, Cln2 fusion (human)
Technique: yeast growth competition, sequencing
Sample: yeast
Notes: strong parent motif
Reference: not given
Direction: higher = stronger binding
Starting sequence: PKN2 docking peptide (human); VSAVQKLDFSDTM; partner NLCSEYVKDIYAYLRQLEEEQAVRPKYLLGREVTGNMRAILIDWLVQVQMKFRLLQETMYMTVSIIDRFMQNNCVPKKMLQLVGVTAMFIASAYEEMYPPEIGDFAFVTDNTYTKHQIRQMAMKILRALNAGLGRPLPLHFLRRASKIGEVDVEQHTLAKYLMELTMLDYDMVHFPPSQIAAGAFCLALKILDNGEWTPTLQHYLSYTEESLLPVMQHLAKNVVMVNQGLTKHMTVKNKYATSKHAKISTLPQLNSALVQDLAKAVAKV
Substitution	normalised enrichment score
VSCVQKLDFSDTM [A3C]	2.86
VSNVQKLDFSDTM [A3N]	-0.204
VSRVQKLDFSDTM [A3R]	0.546
VSAVQKLDFSETM [D11E]	1.89
VSAVQKLDFSTTM [D11T]	1.49
KSAVQKLDFSDTM [V1K]	2.21
VSAMQKLDFSDTM [V4M]	0.728
ISAVQKLDFSDTM [V1I]	1.93
VSAVQKLDFSDTH [M13H]	2.13
ESAVQKLDFSDTM [V1E]	1.8
VSAVQKLDFSSTM [D11S]	1.08
VSAVQKLDFCDTM [S10C]	1.71
VSAVQKLDFSDTY [M13Y]	1.91
TSAVQKLDFSDTM [V1T]	2.07
VSAVQKLDFSDTK [M13K]	1.9
VSAVAKADFSDTM [Q5A L7A]	0.149
VSAVQKLKFSDTM [D8K]	1.29

Sample 2
Target: RING finger protein unkempt homolog, zinc fingers 1-6, SBP tag (UNK, Homo sapiens, UniProt Q9C0B0, residues 30-357)
Chain of UniProt Q9C0B0 (30-357, looked up): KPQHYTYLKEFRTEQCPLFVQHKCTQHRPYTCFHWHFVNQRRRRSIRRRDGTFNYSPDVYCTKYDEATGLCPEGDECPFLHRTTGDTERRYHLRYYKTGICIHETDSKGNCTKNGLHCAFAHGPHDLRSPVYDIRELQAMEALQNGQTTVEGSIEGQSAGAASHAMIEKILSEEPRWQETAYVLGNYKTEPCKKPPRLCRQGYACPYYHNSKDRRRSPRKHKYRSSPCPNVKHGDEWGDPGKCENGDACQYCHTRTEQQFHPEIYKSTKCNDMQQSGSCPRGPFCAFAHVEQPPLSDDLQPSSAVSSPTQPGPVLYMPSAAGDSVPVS
Technique: RNA Bind-n-Seq
Form: RNA
Sample: in vitro
Tested at: 100 nM
Notes: RNA with constant flanks, vertebrate orthologous sites, ends assumed
Reference: input RNA pool
Direction: higher = stronger binding
Shared flanks, not repeated: GGGAGUUCUACAGUCCGACGAUC … CAACAGAGGAUUGAGCAUCA
Strand	bound/input enrichment [ratio]
CAUGUCCUGGUUACUGUGAUAGUUAAAAUAUCCACAGUACUCAUUUUUUCCAAAUGAUUCUAGUAAUUGCCUAGAAAUAUCUUUCUCUUACCUGUUAUUUAUCAAUUUUUCCCAGUAUUU	1.43
ACACUUAUAUUGUGGCAUAUAGUCAACAUGGAAGUAGACCAGCUCUGCUGAUUUGAAAUUUAGAUUUUUUUAAUUAUGUACUGGGGACAGGUUUUUGUCGCUUUACAUUGCUUCCUAGUU	4.3
GUUGUGACCCAUUUAACAUACACAAAAAGCUAGCCAAAAAAAAUUUGCAUGUAAUUGACUUAGAUGAUGCCACUUUUCUGAGUGCAAAAUUUGGAAGACAGCUUGUACCUGGAUGGAAGC	1.17
UCAUAUUGUGUGUAGAGAAAAAUCUUCAUUGACCCAUUGUGAAAUUCCCUAGUAAUUAUUUGGAAUCUUAAUUUUUCUAAUUCAAGUUCAUUGUAUUAGUCAUUUUUAGCCCAUAAUUAA	0.171
GCAAUGAAAAAGCAGCCCUUCUCCCAGCCCCCUUUUCACUAGGAGAUACAAACGUUACCAUAGAAGAGCAAUUAAAUUCAAUAAAUUUAUCUUUUCAGGAUGAUCCAGAUUCCAGUACCA	1.84
UCUCAUGCCUCCACUGUGAGGGAGAGUGGGGGAAGCUGGAUGACCCUCAGCUGUUCCAGUUUUUUUUUUCUUUUUUAAAAAAUUAGUGUAUUUAUUAUGACGAUGGUGACUCCCCCGUGC	1.36
UGUGUUGGUUGGGGUAGAAGGGGAGCAGGGCAGGACAGUGUGUGGAAUCUCUAGGAUAUGUAGGUAGAUAGGAUGCAGUUAGUUUUAACUGGGCUUAUAUGUUAAAAACUUCUGGGGGUG	0.943
UGCAUUAUUUGACCAGAGUUGAGGUGACAGAGUUUGAAGAUAUCAAAUCAGGUUACAGAAUAGAUUUUUAUUUUGACGAGAAUCCAUACUUUGAAAAUAAAGUUCUCUCCAAAGAGUUUC	0.891
UGGGUUACUCCUAUUACUAUCAAGUAGCUGGAAUUGUGAAGGUCGGAGUAGUUAGCUCUUUAGCUUUUCUUCCUUAUUUUUUGUAUUCCUCUCAUGUGUAUAAAUUAUUGAUCAUGUUGC	1.36
AUUUAAAAUGUGUUUACUUAUAUUUAAUGAUCUCAUUCCUGAGUUCCUGUUUCAUUGAAGUAGCUUCCAUUUCUAUUAUUGUAGUUAUGAAUAAAUAGAAGGUUUGUGCCAGUAGACAUU	0.373
GUCAUCUGACUGGAUGAAGACAGUUCCGAGUUACAACCAAACAAAUAGCUCCAUGGACUUUAGAAAUUAUAUGAUGAGAGAUGAAACUCUGGAACCACUGCCCAAAAACUGGGAAAUGGC	1.17

Sample 3
Target: Interferon regulatory factor 5, full length, phosphomimetic (IRF5, Homo sapiens, UniProt Q13568-2, residues 1-514, K96S/S451D/S453D/S456D/S462D)
Technique: protein-binding microarray
Form: double-stranded DNA, one strand shown
Sample: in vitro
Tested at: 250 nM
Notes: 60-bp whole probe
Added: salmon DNA 0.4 mg/ml
Reference: random background probes
Direction: higher = stronger binding
Shared flanks, not repeated: GCCTAGCAC … GTCTTGATTCGCTTGACGCTGCTG
Strand	log fluorescence
TTAGTTCTCAGTTTCGATTAGTGCTAG	9.45 z-score
TTTGAACTGAGTTTCGATTAGTGCTAG	9.46 z-score
GGATGTGTCTTAAATAGGGCAGTGCTA	-0.32 z-score
GAAGGTATCCTTATCCTGACGTGCTAG	0.158 z-score
TTAGGTTTCCACACTGGGTTAGTGCTA	0.389 z-score
TTAGGTATCGGGACGGGGTTAGTGCTA	2.29 z-score
TGGGATTTTCCCATGAGTCTGTGCTAG	-0.158 z-score
CCTTGTGTTACTTTCTACTTGTGCTAG	2.53 z-score
GACGGTCTCCTTACCCTGACGTGCTAG	-0.218 z-score
TTAGGACTGGAATTTCGGTTAGTGCTA	5.84 z-score
TTAGAACTGGTGACTGGATTAGTGCTA	-0.222 z-score
GACGATTACAGTTCCGAGACGTGCTAG	0.167 z-score
GTCGAACTGAGTATCGAGACGTGCTAG	2.16 z-score
TCATCCCTTTCTCTCTGACTGTGCTAG	1.13 z-score
TTAGGTATCCTTCTCCTTTAGTGCTAG	0.365 z-score
GACGGTATCGACACTGGTGACGTGCTA	1.91 z-score
TTAGGACTGCTCCTCCTTTAGTGCTAG	-0.463 z-score
GACGGTTCCCTTTTACTGACGTGCTAG	0.494 z-score
TTAGGGCTGCTTCTCCTTTAGTGCTAG	-0.201 z-score
GACGATATCGGGTATCCAGACGTGCTA	1.79 z-score
CTGCCTGTCCATTCCTTCCAGTGCTAG	-0.0907 z-score
GACGATTTAGGGTTTCGAGACGTGCTA	1.26 z-score
TTAGGTATCGGGTTTGGGTTAGTGCTA	3.1 z-score
AGATGTGTCTTAAATAGGGCAGTGCTA	-0.102 z-score
TAGAAACTCGTGTTTTTCTCCGTGCTA	1.04 z-score

Sample 4
Target: ABI1, truncated, D143A, DHFR fusion (Arabidopsis thaliana)
Technique: DHFR PCA, deep sequencing
Sample: yeast
Notes: methotrexate growth selection, single substitutions
Added: (+)-ABA 58 µM
Reference: wild-type fitted maximum
Direction: higher = stronger binding
Starting sequence: PYL1, truncated, DHFR fusion (Arabidopsis thaliana); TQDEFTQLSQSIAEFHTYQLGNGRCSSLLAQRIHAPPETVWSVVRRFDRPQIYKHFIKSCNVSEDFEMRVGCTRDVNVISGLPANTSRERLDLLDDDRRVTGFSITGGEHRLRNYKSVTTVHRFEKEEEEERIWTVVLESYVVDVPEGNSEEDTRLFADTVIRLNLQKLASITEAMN; partner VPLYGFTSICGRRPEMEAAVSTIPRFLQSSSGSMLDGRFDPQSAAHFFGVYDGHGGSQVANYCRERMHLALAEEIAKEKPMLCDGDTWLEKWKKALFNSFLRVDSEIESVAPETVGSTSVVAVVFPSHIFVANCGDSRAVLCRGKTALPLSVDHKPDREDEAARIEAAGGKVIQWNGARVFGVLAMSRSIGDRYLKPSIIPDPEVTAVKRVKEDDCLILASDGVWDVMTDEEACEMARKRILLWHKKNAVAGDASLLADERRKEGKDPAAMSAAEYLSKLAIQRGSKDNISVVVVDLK
Substitution	relative binding score [%]
E152W	74
N149A	63.5
T119D	-1.97
G71H	38
F15W	94.9
T86M	73
K54C	12.2
P37D	56.7
T173A	83.8
I33C	68
C25T	88.1
F5Q	93.1
R163K	86.4
T73M	83.8
E174H	61.7
P37M	46.6
G81H	17.3

Single results of other studies
Molecule	target	test	test system	conditions	scale	quantity	value
PhoQ, residues 284 288 289 292 302 303 SQSLSM	PhoP, residues 12 14 15 18 19 NYFTV (Escherichia coli, UniProt P23836)	Sort-seq, measured: YFP reporter	E. coli	PhoQ-PhoP variant library, added: 10 µM Mg2+	reference: high Mg2+ state, higher = stronger signaling	fold induction	12.7

Repeated from above (sample 3):
Strand	log fluorescence
TAGAAACTCGTGTTTTTCTCCGTGCTA	1.04 z-score
TTAGGACTGGAATTTCGGTTAGTGCTA	5.84 z-score
GACGGTTCCCTTTTACTGACGTGCTAG	0.494 z-score
AGATGTGTCTTAAATAGGGCAGTGCTA	-0.102 z-score
TTAGGTATCGGGTTTGGGTTAGTGCTA	3.1 z-score
TTAGTTCTCAGTTTCGATTAGTGCTAG	9.45 z-score
TTAGGTTTCCACACTGGGTTAGTGCTA	0.389 z-score
GACGGTCTCCTTACCCTGACGTGCTAG	-0.218 z-score
CTGCCTGTCCATTCCTTCCAGTGCTAG	-0.0907 z-score
